Results gathered from unrelated publications.
Each line is one published result; not all experiments were run side by side. “And” joins repeats or separate records; there may be more than shown. ± gives the spread as reported.
Matrix: plasma

C[C@H](CCC(=O)NCCS(=O)(=O)O)[C@H]1CC[C@H]2[C@@H]3[C@H](O)C[C@@H]4C[C@H](O)CC[C@]4(C)[C@H]3C[C@H](O)[C@]12C gave a Cmin of 8.1 ± 0.55 nM (human; endogenous baseline diurnal).
The Cmin of Cn1cc(-c2cn3nccc3c(-c3cnn([C@]4(CC#N)C[C@@H](C#N)C4)c3)n2)cn1 is reported as 55 ng/mL (healthy humans; oral, 10 mg twice daily, day 200, fed).
The Cmin of O=C(O)CCC(=O)O.[2H]C([2H])([2H])Oc1cc(C)c2[nH]ccc2c1CN1CC[C@@H](C2CC2)C[C@H]1c1ccc(C(=O)O)cc1 is reported as 1610 ng/mL (human; 50 mg twice daily, day 10, multiple ascending dose, geometric mean).
With Cc1cc(/C=C/C#N)cc(C)c1Nc1ccnc(Nc2ccc(C#N)cc2)n1 the Cmin was 49 ng/mL (human, haemodialysis patients; oral, dose not given, steady state, together with: dolutegravir (fixed-dose combination)).
Cc1ncnc2c1ccn2[C@@H]1C[C@H](Oc2cc(C(F)F)c(F)c3c2CNCC3)[C@@H](O)[C@H]1O has a Cmin of 44.4 ng/mL and 21.6 ng/mL (human; 8 mg once daily).
For Fc1ccc([C@@H]2CCNC[C@H]2COc2ccc3c(c2)OCO3)cc1, the Cmin was 21 ng/mL (human, CYP2D6 intermediate metabolizers; oral, 20 mg, steady state).
For C[C@H](CCC(=O)O)[C@H]1CC[C@H]2[C@@H]3[C@H](O)C[C@@H]4C[C@H](O)CC[C@]4(C)[C@H]3CC[C@]12C, the Cmin was 86.3 ± 24.4 nM (human; endogenous baseline diurnal).
C[C@@H]1CCO[C@H]2Cn3cc(C(=O)NCc4ccc(F)cc4F)c(=O)c(O)c3C(=O)N12 has a Cmin of 1000 ng/mL (human, haemodialysis patients; oral, dose not given, steady state, fixed-dose combination).
With O=C(O)CCCCCCCCCCCCCCCCC(=O)O the Cmin was 53 ± 3.7 nM (human; control).
The Cmin of CCCCOCCOc1ccc(-c2ccc3c(c2)/C=C(/C(=O)Nc2ccc([S@@+]([O-])Cc4cncn4CCC)cc2)CCCN3CC(C)C)cc1 is reported as 87.3 ng/mL (human, moderate hepatic impairment; oral, 150 mg, day 1).
O=C(O)CCCCCCCCCCCCC(=O)O has a Cmin of 33.4 ± 2.5 nM (human; endogenous baseline diurnal).
CCOc1c([C@H](C)n2nc(C)c3c(N)ncnc32)cc(Cl)c(F)c1[C@@H]1CNC(=O)C1 has a Cmin of 214 nM (human patients, all cohorts; oral, 20 mg, day 15, monotherapy).

Repeated from above:
With O=C(O)CCCCCCCCCCCCCCCCC(=O)O the Cmin was 53 ± 3.7 nM (human; control).
